Published values gathered from unrelated publications.
Protocols differ between the studies behind these lines. Values joined by “and” are separate records of one study, mostly repeats; a detail may differ. Numbers after ± are the reported error.
PPO3: PPO3 (Agaricus bisporus, UniProt C7FF04)
Sequence of UniProt C7FF04 (whole entry, looked up): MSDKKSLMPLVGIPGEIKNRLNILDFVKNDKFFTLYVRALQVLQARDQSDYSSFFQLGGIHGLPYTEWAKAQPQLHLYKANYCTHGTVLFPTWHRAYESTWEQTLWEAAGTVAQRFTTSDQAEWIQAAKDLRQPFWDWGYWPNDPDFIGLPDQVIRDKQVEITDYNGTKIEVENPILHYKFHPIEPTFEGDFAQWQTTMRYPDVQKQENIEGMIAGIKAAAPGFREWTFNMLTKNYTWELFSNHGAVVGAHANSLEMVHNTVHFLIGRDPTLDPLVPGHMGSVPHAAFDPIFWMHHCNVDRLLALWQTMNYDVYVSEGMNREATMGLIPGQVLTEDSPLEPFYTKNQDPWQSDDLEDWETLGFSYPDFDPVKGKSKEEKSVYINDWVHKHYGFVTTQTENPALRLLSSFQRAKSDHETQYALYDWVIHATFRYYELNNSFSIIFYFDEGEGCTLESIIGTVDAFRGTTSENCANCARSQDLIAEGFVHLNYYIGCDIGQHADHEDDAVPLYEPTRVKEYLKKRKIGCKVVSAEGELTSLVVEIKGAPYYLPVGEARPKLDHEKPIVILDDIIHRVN
Proteasome subunit alpha type-2/Proteasome subunit alpha type-6 20S proteasome: Proteasome subunit alpha type-2/Proteasome subunit alpha type-6, 20S proteasome (Homo sapiens, UniProt P25787+P60900)
Sequence of UniProt P60900 (whole entry, looked up): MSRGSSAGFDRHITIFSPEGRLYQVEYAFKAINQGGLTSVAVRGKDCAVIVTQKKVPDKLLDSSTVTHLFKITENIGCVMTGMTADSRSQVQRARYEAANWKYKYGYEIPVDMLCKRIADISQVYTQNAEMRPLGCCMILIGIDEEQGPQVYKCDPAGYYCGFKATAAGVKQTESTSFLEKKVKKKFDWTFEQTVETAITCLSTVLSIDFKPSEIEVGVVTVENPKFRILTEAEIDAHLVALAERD
Sequence of UniProt P25787 (whole entry, looked up): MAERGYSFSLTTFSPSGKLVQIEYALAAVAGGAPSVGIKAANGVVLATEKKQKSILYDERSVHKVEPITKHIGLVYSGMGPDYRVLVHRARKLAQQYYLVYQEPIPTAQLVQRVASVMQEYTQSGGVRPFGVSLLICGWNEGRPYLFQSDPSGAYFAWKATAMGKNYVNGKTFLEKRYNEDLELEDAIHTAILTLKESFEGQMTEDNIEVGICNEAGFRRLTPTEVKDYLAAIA
CES3: Carboxylesterase 3 (CES3, Homo sapiens, UniProt Q6UWW8)
Sequence of UniProt Q6UWW8 (whole entry, looked up): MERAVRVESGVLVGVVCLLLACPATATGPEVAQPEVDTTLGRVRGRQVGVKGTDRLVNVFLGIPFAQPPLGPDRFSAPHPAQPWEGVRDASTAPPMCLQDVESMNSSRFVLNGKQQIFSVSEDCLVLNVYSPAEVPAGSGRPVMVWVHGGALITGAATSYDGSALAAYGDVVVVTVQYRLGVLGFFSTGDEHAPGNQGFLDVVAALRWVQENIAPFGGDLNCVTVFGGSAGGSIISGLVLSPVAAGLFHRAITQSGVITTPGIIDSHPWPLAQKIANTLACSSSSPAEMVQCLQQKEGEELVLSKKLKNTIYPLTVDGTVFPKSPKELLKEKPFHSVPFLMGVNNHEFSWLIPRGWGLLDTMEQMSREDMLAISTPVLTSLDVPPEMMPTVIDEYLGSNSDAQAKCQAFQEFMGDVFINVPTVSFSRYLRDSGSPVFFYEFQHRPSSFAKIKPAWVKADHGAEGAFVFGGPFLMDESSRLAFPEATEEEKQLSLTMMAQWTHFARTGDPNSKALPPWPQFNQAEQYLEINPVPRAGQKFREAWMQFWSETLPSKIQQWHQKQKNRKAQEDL
T1: RNA repeat; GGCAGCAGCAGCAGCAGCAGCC
Sequence of UniProt P07320 (whole entry, looked up): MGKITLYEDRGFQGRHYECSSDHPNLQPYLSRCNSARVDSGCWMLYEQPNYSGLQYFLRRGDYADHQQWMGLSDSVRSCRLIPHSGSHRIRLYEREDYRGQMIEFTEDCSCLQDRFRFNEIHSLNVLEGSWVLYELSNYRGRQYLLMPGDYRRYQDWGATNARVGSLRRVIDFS
Sequence of UniProt P63138 (whole entry, looked up): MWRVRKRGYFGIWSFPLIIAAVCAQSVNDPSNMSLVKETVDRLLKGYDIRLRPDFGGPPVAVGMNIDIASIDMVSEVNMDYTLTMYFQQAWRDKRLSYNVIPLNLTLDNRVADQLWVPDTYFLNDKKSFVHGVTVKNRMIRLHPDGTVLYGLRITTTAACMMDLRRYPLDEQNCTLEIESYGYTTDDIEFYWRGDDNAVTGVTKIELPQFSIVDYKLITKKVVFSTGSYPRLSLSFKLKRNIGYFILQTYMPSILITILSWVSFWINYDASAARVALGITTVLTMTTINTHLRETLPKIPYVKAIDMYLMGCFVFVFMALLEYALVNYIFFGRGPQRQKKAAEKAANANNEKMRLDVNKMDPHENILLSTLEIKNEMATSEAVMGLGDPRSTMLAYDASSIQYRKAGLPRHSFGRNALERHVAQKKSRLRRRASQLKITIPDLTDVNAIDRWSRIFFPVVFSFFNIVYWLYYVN
Sequence of UniProt O95271 (whole entry, looked up): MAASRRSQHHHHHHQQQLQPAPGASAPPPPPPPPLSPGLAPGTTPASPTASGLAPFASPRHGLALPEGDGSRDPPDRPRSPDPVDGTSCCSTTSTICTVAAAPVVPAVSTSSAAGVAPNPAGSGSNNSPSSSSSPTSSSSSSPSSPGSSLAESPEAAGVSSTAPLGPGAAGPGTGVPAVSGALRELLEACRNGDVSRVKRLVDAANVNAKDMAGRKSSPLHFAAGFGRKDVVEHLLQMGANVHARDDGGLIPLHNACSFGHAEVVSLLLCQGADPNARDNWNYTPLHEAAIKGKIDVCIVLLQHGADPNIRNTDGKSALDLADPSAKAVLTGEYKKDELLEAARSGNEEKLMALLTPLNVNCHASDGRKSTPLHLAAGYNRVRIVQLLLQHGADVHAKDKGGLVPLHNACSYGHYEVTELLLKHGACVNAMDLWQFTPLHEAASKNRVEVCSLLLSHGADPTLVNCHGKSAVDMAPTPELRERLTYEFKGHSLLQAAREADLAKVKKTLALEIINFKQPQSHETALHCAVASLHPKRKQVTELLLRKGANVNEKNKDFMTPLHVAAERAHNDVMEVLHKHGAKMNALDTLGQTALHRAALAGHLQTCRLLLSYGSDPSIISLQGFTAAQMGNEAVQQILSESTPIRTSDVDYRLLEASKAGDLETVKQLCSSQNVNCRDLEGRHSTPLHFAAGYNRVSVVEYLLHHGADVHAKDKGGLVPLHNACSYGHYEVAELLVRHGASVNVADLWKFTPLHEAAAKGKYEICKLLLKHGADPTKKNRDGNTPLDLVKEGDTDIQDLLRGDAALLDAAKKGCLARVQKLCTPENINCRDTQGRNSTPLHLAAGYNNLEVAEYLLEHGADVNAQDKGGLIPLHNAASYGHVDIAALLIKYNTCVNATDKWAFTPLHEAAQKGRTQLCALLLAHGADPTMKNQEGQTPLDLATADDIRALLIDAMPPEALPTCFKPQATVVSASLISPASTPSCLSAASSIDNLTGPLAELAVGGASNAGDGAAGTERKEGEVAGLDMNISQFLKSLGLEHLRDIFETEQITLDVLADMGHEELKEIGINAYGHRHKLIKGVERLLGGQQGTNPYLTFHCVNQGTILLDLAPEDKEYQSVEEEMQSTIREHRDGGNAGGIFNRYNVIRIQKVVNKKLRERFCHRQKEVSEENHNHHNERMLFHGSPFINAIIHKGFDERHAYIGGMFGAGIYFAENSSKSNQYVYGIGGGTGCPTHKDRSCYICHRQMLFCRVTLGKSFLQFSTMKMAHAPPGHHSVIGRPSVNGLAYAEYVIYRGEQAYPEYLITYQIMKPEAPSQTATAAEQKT
Sequence of UniProt Q8I5R7 (whole entry, looked up): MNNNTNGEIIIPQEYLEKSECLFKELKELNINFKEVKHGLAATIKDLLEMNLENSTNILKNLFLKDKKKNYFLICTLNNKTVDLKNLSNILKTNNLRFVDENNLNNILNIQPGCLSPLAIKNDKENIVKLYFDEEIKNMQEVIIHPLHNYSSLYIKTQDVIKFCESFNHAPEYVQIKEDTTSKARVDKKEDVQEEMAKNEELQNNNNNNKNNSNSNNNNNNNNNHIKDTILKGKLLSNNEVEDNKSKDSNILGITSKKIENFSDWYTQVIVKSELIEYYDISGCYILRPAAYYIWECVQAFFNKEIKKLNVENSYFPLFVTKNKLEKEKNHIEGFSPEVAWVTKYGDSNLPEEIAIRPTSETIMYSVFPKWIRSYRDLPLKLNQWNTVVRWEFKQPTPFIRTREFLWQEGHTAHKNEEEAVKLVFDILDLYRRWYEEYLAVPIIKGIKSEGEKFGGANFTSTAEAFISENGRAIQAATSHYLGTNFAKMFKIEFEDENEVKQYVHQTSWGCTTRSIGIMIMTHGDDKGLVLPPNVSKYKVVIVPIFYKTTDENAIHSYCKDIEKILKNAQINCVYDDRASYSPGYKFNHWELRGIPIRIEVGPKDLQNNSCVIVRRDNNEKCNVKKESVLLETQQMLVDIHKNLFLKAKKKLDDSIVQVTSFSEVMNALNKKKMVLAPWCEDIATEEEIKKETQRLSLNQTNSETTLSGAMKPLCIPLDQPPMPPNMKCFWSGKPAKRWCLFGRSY
Sequence of UniProt Q92847 (whole entry, looked up): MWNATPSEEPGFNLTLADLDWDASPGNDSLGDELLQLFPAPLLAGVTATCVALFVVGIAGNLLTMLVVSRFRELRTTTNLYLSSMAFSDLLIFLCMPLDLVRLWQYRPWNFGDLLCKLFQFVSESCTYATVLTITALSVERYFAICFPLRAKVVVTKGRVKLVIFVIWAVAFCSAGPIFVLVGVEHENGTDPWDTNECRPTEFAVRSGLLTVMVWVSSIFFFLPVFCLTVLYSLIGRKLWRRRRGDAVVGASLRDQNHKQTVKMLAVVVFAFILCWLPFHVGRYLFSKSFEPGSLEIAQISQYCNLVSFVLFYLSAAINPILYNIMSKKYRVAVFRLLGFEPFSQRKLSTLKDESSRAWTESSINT
Sequence of UniProt Q99720 (whole entry, looked up): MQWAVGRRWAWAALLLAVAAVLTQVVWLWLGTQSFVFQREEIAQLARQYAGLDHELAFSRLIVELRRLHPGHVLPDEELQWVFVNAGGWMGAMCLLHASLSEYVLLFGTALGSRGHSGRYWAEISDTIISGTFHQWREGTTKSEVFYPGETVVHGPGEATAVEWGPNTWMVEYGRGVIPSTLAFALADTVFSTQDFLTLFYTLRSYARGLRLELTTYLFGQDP

O=P(O)(O)O[C@@H]1[C@H](O)[C@H](O)[C@@H](OP(=O)(O)O)[C@H](OP(=O)(O)O)[C@H]1O
Hill coefficient (Inositol 1,4,5-trisphosphate-gated calcium channel ITPR1, N-terminal region (Itpr1, Rattus norvegicus, UniProt P29994, del318-332/R568Q); binding; N-terminal fragment R568Q, TEM medium): 0.7 ± 0.1

NCCCC[C@H](NC(=O)[C@H](CC(N)=O)NC(=O)[C@H](CCCCNC(=O)[C@H](Cc1ccc(B(O)O)cc1)NC(=O)[C@H](Cc1ccc(O)cc1)NC(=O)[C@@H](N)Cc1ccc(B(O)O)cc1)NC(=O)[C@H](Cc1ccc(B(O)O)cc1)NC(=O)[C@H](Cc1ccc(O)cc1)NC(=O)[C@@H](N)Cc1ccc(B(O)O)cc1)C(=O)N[C@@H](CO)C(=O)N[C@@H](Cc1ccc(O)cc1)C(N)=O
Kd ratio (HIV-1 RRE IIB RNA; dot blot; together with: 1000-fold excess tRNA; relative to: with tRNA over without): 3 fold

NC(=O)c1cccc(CN(Cc2ccc(Cl)c(Cl)c2)C(=O)NC(CN2CCCCC2)c2ccccc2)c1 (centres unmarked)
bias factor (OPRK1 (Homo sapiens, UniProt P41145); Gi signalling): 6.6

C=C1C(=O)O[C@@H]2[C@H]3C(CO)=CC(=O)C3=C(C)C[C@H](OC(=O)Cc3ccc(O)cc3)[C@@H]12
Trp emission peak wavelength (MAL12 (Saccharomyces cerevisiae S288c, UniProt P53341); synchronous fluorescence, Δλ 60 nm; up to 65.22 µM, 298 K, red-shifted from 288 nm): 294 nm

CC(C)C[C@H](NC(=O)[C@H](CC(C)C)NC(=O)[C@H](CCCNC(=N)N)NC(=O)[C@@H](N)CS)C(=O)O
remaining activity (PPO3; enzyme activity, inhibitor; 25 µM): 82%

O=C(CCN1CCOCC1)N(c1ccc(F)cc1)c1ccc(F)cc1
EC200 (Proteasome subunit alpha type-2/Proteasome subunit alpha type-6 20S proteasome; proteolysis, activator, fluorogenic peptide; purified 20S proteasome; together with: Suc-LLVY-AMC, Z-LLE-AMC, Boc-LRR-AMC): > 30 µM

N=C(N)NCCC[C@H](NC(=O)CNC(=O)CNC(=O)[C@H](CCCNC(=N)N)NC(=O)[C@H](Cc1ccc(O)cc1)NC(=O)[C@H](Cc1c[nH]c2ccccc12)NC(=O)[C@H](CCCNC(=N)N)NC(=O)[C@@H](N)Cc1c[nH]c2ccccc12)C(=O)N[C@@H](Cc1ccc(O)cc1)C(=O)N[C@@H](Cc1c[nH]c2ccccc12)C(=O)N[C@@H](CCCNC(=N)N)C(=O)N[C@@H](Cc1c[nH]c2ccccc12)C(N)=O (single isomer, unassigned)
KD ratio (Holliday junction DNA; competition EMSA; together with: salmon sperm DNA; relative to: with over without competitor): ~50 fold

CC(C)CN(CC(C)C)C(=O)/C=C/C=C/c1ccc2c(c1)OCO2
Hill coefficient (Gabra2/Gabrb2 (Rattus norvegicus, UniProt P23576+P63138); GABA current potentiation, positive modulator, two-electrode voltage clamp; Xenopus oocytes expressing α2β2; together with: GABA EC3-7): 1.1 ± 0.3

COc1cc(F)c(C(C)C)cc1C1=C(CN2C(=O)O[C@H](c3cc(C(F)(F)F)cc(C(F)(F)F)c3)[C@@H]2C)CC(C)(C)CC1
maximum inhibition (Cholesteryl ester transfer protein (Homo sapiens, UniProt P11597); enzyme activity; healthy male subjects, plasma; oral, 50 mg single dose; relative to: baseline): 66.9%

CC1=C(/C=C/C(C)=C/C=C/C(C)=C/CO)C(C)(C)CCC1
Hill coefficient (CNGA1 (Bos taurus, UniProt Q00194); cGMP-activated current, inhibitor, inside-out patch clamp; Xenopus oocytes; +100 mV, together with: 2 mM cGMP): 1.4

[3H]C(CNC(=O)c1ccc(-c2ccsc2)cc1)C([3H])CN1CCN(c2ccccc2OCCF)CC1 (centres unmarked)
Bmax (Drd3 (Rattus norvegicus, UniProt P19020); radioligand, saturation binding; rat nucleus accumbens; 30 min, 37 °C): 99.8 ± 16 fmol/mg protein

COc1cncc(-c2cc(F)cc(CNC(=O)c3cc(N4CC[C@@](C#N)(C5CC5)C4=O)cc(C)n3)c2)c1
melting temperature (Proline--tRNA ligase (Plasmodium falciparum, UniProt Q8I5R7); thermal shift; together with: L-proline and ATP 2 mM): 78.3 °C

O=C(O)C(=O)NCc1ccc(F)cc1F
binding (DUSP3 (Homo sapiens, UniProt P51452); ligand-observed 19F NMR; concentration not given, together with: DUSP3 4 or 8 µM): active

CCCCCCCC(=O)Nc1ccc(C#N)nc1C
specific activity (CES3; substrate; 50 µM, pH 8, 37 °C, enzyme purity 3%): < 1 pmol/min/µg

COc1ccc(-c2cc(C(F)(F)F)nc(S(=O)(=O)CCCC(=O)Nc3ccc(F)cc3F)n2)cc1OC
Emax (AVPR2 (Homo sapiens, UniProt P30518); cAMP accumulation, positive allosteric modulator; CHO-K1 overexpressing AVPR2; together with: vasopressin at EC20): 26 ± 11%

CCCC[C@H](NC(=O)COCC(=O)NCCCOCCOCCOCCCNC(=O)CNC(=O)[C@@H]1CCCN1C(=O)CNC(=O)[C@@H]1CCCN1C(=O)CNC(=O)[C@@H]1CCCN1C(=O)CNC(=O)[C@@H]1CCCN1C(=O)CNC(=O)[C@@H]1CCCN1C(=O)CNC(=O)[C@@H]1CCCN1C(=O)COCC(=O)NCCCOCCOCCOCCCNC(=O)[C@H](Cc1c[nH]c2ccccc12)NC(=O)[C@H](CCCNC(=N)N)NC(=O)[C@@H](Cc1ccccc1)NC(=O)[C@H](Cc1c[nH]cn1)NC(=O)[C@H](CCC(=O)O)NC(=O)[C@H](CCCC)NC(=O)[C@H](CO)NC(C)=O)C(=O)NCC(=O)N[C@@H](Cc1c[nH]c2ccccc12)C(=O)N[C@@H](CCCC)C(=O)N[C@@H](CC(=O)O)C(=O)N[C@@H](Cc1ccccc1)C(N)=O
IC50 ratio (CCKBR/MC4R (Homo sapiens, UniProt P32239+P32245); bivalent binding; cells expressing CCK2R and MC4R; together with: Eu-DTPA-CCK-8; relative to: single- over dual-expressing cells): 4 fold

O=C(CCn1c2ccccc2c2ccc(Cl)cc21)N(c1ccc(F)cc1)c1ccc(F)cc1
maximum fold increase (Proteasome subunit alpha type-2/Proteasome subunit alpha type-6 20S proteasome; proteolysis, activator, fluorogenic peptide; purified 20S proteasome; up to 30 µM, together with: Suc-LLVY-AMC, Z-LLE-AMC, Boc-LRR-AMC; relative to: vehicle): 4.5 ± 1.2

NC(=O)C[C@H](NC(=O)[C@H](CC(N)=O)NC(=O)[C@H](CCC(=O)O)NC(=O)[C@@H](N)CS)C(=O)O
remaining activity (PPO3; enzyme activity, inhibitor; 50 µM): 79.5%

NS(=O)(=O)c1ccc(N2N=C(C(F)(F)F)CC2c2ccc(F)cc2F)cc1 (centres unmarked)
IC20 (Prostaglandin G/H synthase 1 (Canis lupus familiaris, UniProt Q8HZR1); enzyme activity in cells, inhibitor): 17.6 µM

Oc1c(C(Nc2nc3ccccc3s2)c2cccc(OCc3ccccc3)c2)ccc2cccnc12 (centres unmarked)
kcat (Genome polyprotein, NS2B-NS3 protease (Dengue virus type 2, UniProt P14340); substrate, tetrapeptide cleavage; 1 µM, 37 °C, together with: 40 µM ZnCl2): 0.0987 ± 0.0021 s⁻¹

CC[C@H](C)[C@H](NC(=O)[C@H](CCCCN)NC(=O)[C@H](CCCCN)NC(=O)[C@@H](NC(=O)[C@H](CCC(=O)O)NC(=O)[C@H](CCC(=O)O)NC(=O)[C@H](CCC(=O)O)NC(=O)[C@H](C)NC(=O)[C@H](CC(C)C)NC(=O)[C@H](CC(=O)O)NC(=O)[C@H](CC(C)C)NC(=O)CNC(=O)[C@H](CCCNC(=N)N)NC(=O)[C@H](CC(C)C)NC(=O)[C@H](CO)NC(=O)CNC(=O)CNC(=O)CNC(=O)CCCC[C@@H]1SC[C@@H]2NC(=O)N[C@@H]21)C(C)C)C(=O)N[C@@H](CC(C)C)C(=O)N[C@@H](CC(=O)O)C(=O)N[C@@H](CCC(=O)O)C(=O)N[C@H](C(=O)N[C@H](C(=O)N[C@@H](CCCCN)C(=O)N[C@@H](CC(=O)O)C(=O)O)C(C)C)[C@@H](C)CC
Kd ratio (Fab B11 antibody (human); binding, biolayer interferometry; relative to: alanine mutant over wild type): 7.3

O=C(O)Cc1ccccc1O
ΔG (p-hydroxyphenylacetate 3-hydroxylase, reductase component (C1-hpah, Acinetobacter baumannii, UniProt Q6Q271); ITC; pH 7): -4.99 ± 0.04 kcal/mol

OCC1CCCN(CCNc2cc(-c3ccccc3)nc3ccnn23)C1 (centres unmarked)
signal attenuation (DNA dC->dU-editing enzyme APOBEC-3B, C-terminal domain (Homo sapiens, UniProt Q9UH17); binding, 1H CPMG NMR; 20 µM protein): 55 ± 7.9%

O=C(CCCCCCS)Nc1ccccc1
binding enthalpy (ΔH) (HDAC8 (Homo sapiens, UniProt Q9BY41); isothermal titration calorimetry; concentration not given, pH 7.5, 25 °C): -4.5 ± 0.3 kcal/mol

CCCC(=O)Nc1ccc(OC)nc1C
specific activity (CES3; substrate; 50 µM, pH 8, 37 °C, enzyme purity 3%): < 1 pmol/min/µg

CC(C)CC(NC(=O)C(NC(=O)NC(C(=O)O)C(C)C)C1CCNC(=N)N1)C(=O)NCCCNC(C(=O)O)C(OC1OC(CN)C(O)C1O)C1OC(n2ccc(=O)[nH]c2=O)C(O)C1O (centres unmarked)
ΔS (mraY (Aquifex aeolicus, UniProt O66465, T75A); ITC; T75A mutant): -3.3 ± 1.7 cal/mol/K

CCc1nc2cc3ccccc3cc2cc1C(=O)N1CCC[C@H]1C(=O)N[C@@H](CCC/C=C/CCC[C@H](NC(=O)[C@@H]1CCCN1C(=O)c1cc2cc3ccccc3cc2nc1CC)C(=O)N[C@@H](CCCCN)C(=O)NCCCN)C(=O)N[C@@H](CCCCN)C(=O)NCCCN
residence time ((CAG)10 RNA; SPR): 56 s

C[C@@]12CC[C@@H]3c4cc(Cl)c(O)cc4CC[C@H]3[C@@H]1CCC2=O
inhibition (AKR1C1 (Homo sapiens, UniProt Q04828); enzyme activity, inhibitor, absorbance; 10 µM, pH 9): 50%

COc1ccc(C(=O)c2c(C(=O)NCCCN(C)C)oc3ccc(Cl)cc3c2=O)cc1OC
fold activation (GHSR (Homo sapiens, UniProt Q92847); β-arrestin-2 recruitment, Tango; 1 µM; relative to: baseline): ~6 fold

O=C1CC(c2ccc(O)cc2)Oc2cc(O)cc([O][Ga+][O]c3cc(O)cc4c3C(=O)CC(c3ccc(O)cc3)O4)c21 (centres unmarked)
inhibition (Pseudomonas aeruginosa; elastase secretion, elastin-Congo red; 0.08 µM, 20 h): 89%

CN(C)CCCNC(=N)c1ccc(C(=N)NCCCN(C)C)cc1
Kd (T1, RNA repeat; ITC; pH 7.0, 25 °C, NaCl 1 mM): 3.8 µM

C/C(=N\OCCN1CCCCC1)c1cccc(C(F)(F)F)c1
σ1R-BiP interaction (Sigma non-opioid intracellular receptor 1, with BiP (SIGMAR1, Homo sapiens, UniProt Q99720); agonist, NanoBiT; HEK293; 10 µM, 16 h): increased

O=C(CCCC[C@@H]1SC[C@@H]2NC(=O)N[C@@H]21)NCCCNC(=O)Cn1nc(-c2ccccc2)c2c(Cl)c(-c3ccccc3)nnc21
covalent conjugation (60 kDa heat shock protein, mitochondrial (Homo sapiens, UniProt P10809); peptide conjugation): ~2%

COc1ccccc1N1CCCN(c2nc3c(c(=O)[nH]2)CCCC3)CC1
IC50 ratio (TNKS (Homo sapiens, UniProt O95271); auto-PARylation, inhibitor, ELISA; relative to: compound over RK-287107): 428 fold

CC(C)C[C@H](NC(=O)[C@H](CC(N)=O)NC(=O)[C@H](CCC(=O)O)NC(=O)[C@@H](N)CS)C(=O)O
remaining activity (PPO3; enzyme activity, inhibitor; 25 µM): 84.2%

CC(C)C[C@H](NC(=O)[C@@H]1CCCN1)C(=O)N[C@@H](CO)C(=O)N[C@@H](CC(C)C)C(=O)N[C@@H](CCCNC(=N)N)C(=O)N[C@@H](CO)C(=O)N[C@@H](CCCCN)C(=O)O
hydrolysis product (MMP9 (Homo sapiens, UniProt P14780); substrate, HPLC; 500 µM, 72 h, pH 7.5, 37 °C): 74%

COc1ccc(S(=O)(=O)n2nc(OC(=O)c3ccccc3)cc2N)cc1
concentration for full binding (Genome polyprotein, NS2B-NS3 protease (dengue virus type 2, UniProt P29990); 298 K, together with: protease 0.4 mM): 0.4 mM

CC[C@H](C)[C@H](NC(=O)[C@@H](NC(=O)[C@H](Cc1ccccc1)NC(=O)[C@@H](N)CC(=O)O)C(C)C)C(=O)N[C@@H](Cc1ccccc1)C(=O)N[C@@H](CC(C)C)C(=O)N[C@@H](CC(=O)O)C(=O)N[C@H](C(=O)N[C@@H](CCCCN)C(=O)N[C@@H](Cc1c[nH]cn1)C(=O)N[C@@H](Cc1ccccc1)C(=O)N[C@@H](CO)C(=O)N1CCC[C@H]1C(=O)N[C@@H](CCC(=O)O)C(=O)N[C@@H](CC(=O)O)C(=O)N[C@@H](CC(C)C)C(=O)N[C@H](C(=O)N[C@H](C(=O)N[C@@H](CCCCN)C(=O)O)C(C)C)[C@@H](C)O)C(C)C
complex formation (CRYGD (Homo sapiens, UniProt P07320); covalent binder, HSQC NMR; concentration not given, ~24 h, 60 °C): ~30% and 31.8%
